Measurements collected from several papers.
Protocols differ between the studies behind these lines. Numbers after ± are the reported error.

SMILES | cell line | assay | test system | setting | scale | endpoint | result
COC1CN([C@H]2CC[C@H]([C@@]3(C)Oc4c(Cl)cc(C(=O)NCc5c(SC)cc(C)[nH]c5=O)c(C)c4O3)CC2)C1 | BFTC-905 | cell growth or viability, ATP luminescence | – | 12 days | – | GI50 | > 1 µM
O=C(Cn1c(=O)c(Cc2ccccc2)nc2ccccc21)OCCNCCO | HCT-116 | MTT | – | – | reference: HCT-116 over normal colonocytes | selectivity index | 29.4
COc1cc(CNC(=O)C[C@H](C)CCC=C(C)C)ccc1OCc1cn(-c2ccc(Br)cc2)nn1 | NCI-H522 | SRB | – | 10 µM, 48 h | – | growth percent | 41.6%
CCCC(CCC)C(=O)[O][Pt]([NH2])([NH2])([Cl])([Cl])[O]C(=O)C(C)c1ccc(CC(C)C)cc1 (stereo not drawn) | six human cancer lines | cytotoxicity, MTT | – | – | reference: cisplatin | IC50 fold lower | ~10 fold
FC(F)(F)c1ccnc(-c2cc(C(F)(F)F)ccn2)c1.FC(F)(F)c1ccnc(-c2cc(C(F)(F)F)ccn2)c1.[Cl-].[Cl-].[Ru+2].c1csc(-c2ccc(-c3ccc(-c4nc5c6cccnc6c6ncccc6c5[nH]4)s3)s2)c1 | SK-MEL-28 | cell viability | – | normoxia, added: red light 633 nm | reference: dark EC50 over light EC50 | mean phototherapeutic index | 52
CC(=O)N1CCC[C@H]1C(=O)N[C@@H](CC/C=C/C(=O)N(C)C)C(=O)N[C@@H](CCNC(=O)CCCCCN1C(=CC=CC=CC2=[N+](C)c3ccc(S(=O)(=O)[O-])cc3C2(C)C)C(C)(C)c2cc(S(=O)(=O)O)ccc21)C(=O)N1CCC[C@H]1C(=O)N[C@@H](Cc1ccccc1)C(N)=O | NRK cells | measured: EEA-1 | – | 90 min, added: α2-macroglobulin | – | Pearson colocalization coefficient | 0.01
CS(C)=O.CS(C)=O.[Cl][Cu][Cl].c1ccc(-c2nnc(-c3ccc4c(c3)OCO4)[nH]2)nc1 | T24 | JC-1 flow cytometry | – | 5.3 µM, 24 h | – | cells with altered mitochondrial potential | 35.1%
C=CC(OC(C)=O)c1cc(OC)c(OC(C)=O)c(OC)c1 (stereo not drawn) | MDA-MB-231 | Western blot, measured: phospho-Akt/Akt | – | concentration not given, 24 h | – | phospho-Akt reduction | 70 to 94%
C#CCNC(=O)C(CC(C)(C)F)NC(c1ccc(-c2ccc(S(C)(=O)=O)cc2)cc1)C(F)(F)F (stereo not drawn) | human osteoclasts | bone resorption, inhibitor | cortical bone slices | 504 h | – | effective concentration | ≥ 80 nM
COc1cc([C@@H]2c3cc4c(cc3[C@@H](OCc3cc(-c5cccc(C#N)c5)no3)[C@H]3COC(=O)C23)OCO4)cc(OC)c1OC (stereo partly drawn) | MIA PaCa-2 | cell growth or viability, SRB | – | 48 h | – | GI50 | 10.2 µM
O=C(CSc1nc2ccccc2s1)Nc1nonc1[N+](=O)[O-] | Ramos | LFQ mass spectrometry | – | 10 µM, 8 h | – | downregulated proteins | 269 count
Cc1ccc(C(C)C)cc1.[Cl-].[Cl][Ru+].[Ru+].c1ccc(-c2cn(CCCCOc3ccccc3-c3nc4ccccc4s3)nn2)nc1 | MCF7 | annexin V/PI flow cytometry | – | 8 µM, 24 h | – | early apoptotic cells | 8.68%
COc1ccc(NC(=O)N/N=C2\CC3(CCN(C)CC3)Oc3ccccc32)cc1 | HCT-116 | PI staining, flow cytometry | – | concentration not given, %G0-G1 | – | cell cycle distribution | 47.8%
CC(C)(C)C(=O)Nc1ccc2[nH]c(CN3CCC(N(CCCN4CCOCC4)CC4OC(n5cnc6c(N)ncnc65)C(O)C4O)CC3)nc2c1 (stereo not drawn) | H460 wild type cells | colony formation | – | 5 µM | – | inhibition | 61.6%
N=C(N)NCCC[C@H](NC(=O)[C@H](Cc1c[nH]c2ccccc12)NC(=O)[C@H](CCC(N)=O)NC(=O)[C@H](Cc1c[nH]c2ccccc12)NC(=O)[C@H](CCCNC(=N)N)NC(=O)[C@H](Cc1c[nH]c2ccccc12)NC(=O)[C@H](CCC(N)=O)NC(=O)[C@H](Cc1c[nH]c2ccccc12)NC(=O)[C@@H](N)CCCNC(=N)N)C(N)=O | young human fibroblasts primary | MTT | – | concentration not given, 48 h, 37 °C, 5% FBS | reference: untreated cells | viability | 92 ± 2%
O=C1Nc2ccc(Cl)cc2C1=Cc1c(Cl)[nH]c2c1ccc1ccccc12 | CNS cancer subpanel of NCI-60 | – | – | 48 h | – | TGI | 5.37 µM
COc1cc(O)cc(CCc2cc(Cl)ccc2O)c1 | chemoresistant colorectal cancer cells | NHEJ reporter, GFP flow cytometry | – | concentration not given | – | NHEJ efficiency reduction | ≤ 65%

SMILES | cell line | assay | test system | setting | scale | endpoint | result
C[C@H](NC(=O)[C@H](CCC(N)=O)NC(=O)[C@H](Cc1c[nH]c2ccccc12)NC(=O)[C@@H](N)CCCNC(=N)N)C(=O)N[C@@H](CCCNC(=N)N)C(=O)N[C@@H](Cc1c[nH]c2ccccc12)C(=O)N[C@@H](CCC(N)=O)C(=O)N[C@@H](Cc1c[nH]c2ccccc12)C(=O)N[C@@H](CCCNC(=N)N)C(N)=O | young human fibroblasts primary | MTT | – | concentration not given, 48 h, 37 °C, 5% FBS | reference: untreated cells | viability | 66 ± 2%
O=C(Cn1c(=O)c(Cc2ccccc2)nc2ccccc21)NN1C(=O)c2ccccc2C1=O | HCT-116 | qRT-PCR, measured: VEGF | – | concentration not given, 72 h | reference: untreated | mRNA level | 0.512 ± 0.011 fold
CCCC(NC(=O)C(C#N)=Cc1nc(Cl)ccc1Cl)c1ccc(OCCN2CCOCC2)cc1 (stereo not drawn) | Ramos | LFQ mass spectrometry | – | 10 µM, 8 h | – | downregulated proteins | 1780 count
CCOC(=O)C(Cc1cccc(O)c1)OC(=O)C=Cc1ccc(O)c(O)c1C=Cc1ccc(O)c(O)c1 (stereo not drawn) | human vascular smooth muscle cells | – | – | 10 µM | – | average cell length | ~60 µm
CC[C@H](C(=O)N1CCCC[C@H]1C(=O)O[C@H](CCc1ccc(OC)c(OC)c1)c1cccc(OCC(=O)NCCOCCOCCN(C)C/C=C/C(=O)Nc2cc3c(Nc4ccc(F)c(Cl)c4)ncnc3cc2OC)c1)c1cc(OC)c(OC)c(OC)c1 | NCI-H1975 FKBP12 F36V-PTPN2 knock-in | degrader, CellTiter-Glo | – | 5 µM, 4 days | – | decrease in viability | 94.1%
CCC(=C(c1ccc(Cl)cc1)c1ccc(OCCCN(C)C)cc1)c1ccc(OC)cc1 | NCI/ADR-RES | cell growth or viability | – | – | – | GI50 | 7.27 µM
CC(=O)c1c(C)c2cnc(Nc3ccc(N4CCNCC4)cn3)nc2n(C2CCCC2)c1=O | recombinant CHO cell line | PI flow cytometry | – | concentration not given, 24 h | – | G0/G1 arrested cells | 96%
Cc1nc(C)c(C=[N+]([O-])C(C)(C)C)nc1C | primary rat midbrain neurons | Western blot, measured: SIRT1 | – | 100 µM, added: 20 µM MPP+ | – | increase in protein level | 85.3%
CCN(CC)CC(=O)Nc1cccc(-n2cc(-c3ccc4ccc(-c5cn(-c6cccc(NC(=O)CN(CC)CC)c6)nn5)cc4c3)nn2)c1 | RCC4 | ELISA | culture medium | 5 × IC50, 4 h | reference: untreated | VEGF level | 71.6%
COc1cc(CNC(=O)C[C@H](C)CCC=C(C)C)ccc1OCc1cn(-c2ccc([N+](=O)[O-])cc2)nn1 | NCI-H522 | SRB | – | 10 µM, 48 h | – | growth percent | 58.9%
C=CC(OC(C)=O)c1ccc(OC(C)=O)c(OC)c1 (stereo not drawn) | MDA-MB-231 | Western blot, measured: phospho-FAK/FAK | – | concentration not given, 24 h | – | phospho-FAK reduction | 70 to 94%
C[C@H](NC(=O)[C@H](Cc1c[nH]c2ccccc12)NC(=O)[C@@H](N)CCCNC(=N)N)C(=O)N[C@@H](Cc1c[nH]c2ccccc12)C(=O)N[C@@H](CCCNC(=N)N)C(=O)N[C@@H](Cc1c[nH]c2ccccc12)C(=O)N[C@@H](CCC(N)=O)C(=O)N[C@@H](Cc1c[nH]c2ccccc12)C(=O)N[C@@H](CCCNC(=N)N)C(N)=O | young human fibroblasts primary | MTT | – | concentration not given, 2 h, 37 °C, 5% FBS | reference: untreated cells | viability | 100 ± 3%
CC/C=C\C/C=C\C/C=C\C/C=C\C/C=C\C/C=C\CCC(=O)Nc1ccn(C2OC(CO)C(O)C2(F)F)c(=O)n1 (stereo not drawn) | Malme-3M | cell growth or viability, SRB | – | – | – | GI50 | 10.1 µM
COc1ccc([C@@H]2CC(=O)c3c(O)cc(O[C@@H]4O[C@H](CO[C@@H]5O[C@@H](C)[C@H](O)[C@@H](O)[C@H]5O)[C@@H](O)[C@H](O)[C@H]4O)cc3O2)cc1O | A549 | trypan blue exclusion | – | 150 µg/mL, 24 h | – | cell count | 7500 ± 366
C=C(CC)C(=O)c1ccc(OCC(=O)NCCNC(=O)COc2ccc(C(=O)C(=C)CC)c(Cl)c2Cl)c(Cl)c1Cl | SK-OV-3/DDP | cell growth, CCK-8 | – | 72 h | – | IC10 | 3.5 µM
O=C(O)CCC(NP(=O)(O)OCCC[C@@H](NC(=O)CC[C@H](NC(=O)CCCCCNC(=O)c1ccc([18F])cc1)C(=O)O)C(=O)O)C(=O)O (stereo partly drawn) | CWR22Rv1 | – | – | concentration not given, 1 h | – | cell uptake | 0.56 ± 0.05%

For quick reference, copied from above:
SMILES | cell line | assay | test system | setting | scale | endpoint | result
FC(F)(F)c1ccnc(-c2cc(C(F)(F)F)ccn2)c1.FC(F)(F)c1ccnc(-c2cc(C(F)(F)F)ccn2)c1.[Cl-].[Cl-].[Ru+2].c1csc(-c2ccc(-c3ccc(-c4nc5c6cccnc6c6ncccc6c5[nH]4)s3)s2)c1 | SK-MEL-28 | cell viability | – | normoxia, added: red light 633 nm | reference: dark EC50 over light EC50 | mean phototherapeutic index | 52
CCOC(=O)C(Cc1cccc(O)c1)OC(=O)C=Cc1ccc(O)c(O)c1C=Cc1ccc(O)c(O)c1 (stereo not drawn) | human vascular smooth muscle cells | – | – | 10 µM | – | average cell length | ~60 µm
CC[C@H](C(=O)N1CCCC[C@H]1C(=O)O[C@H](CCc1ccc(OC)c(OC)c1)c1cccc(OCC(=O)NCCOCCOCCN(C)C/C=C/C(=O)Nc2cc3c(Nc4ccc(F)c(Cl)c4)ncnc3cc2OC)c1)c1cc(OC)c(OC)c(OC)c1 | NCI-H1975 FKBP12 F36V-PTPN2 knock-in | degrader, CellTiter-Glo | – | 5 µM, 4 days | – | decrease in viability | 94.1%
C#CCNC(=O)C(CC(C)(C)F)NC(c1ccc(-c2ccc(S(C)(=O)=O)cc2)cc1)C(F)(F)F (stereo not drawn) | human osteoclasts | bone resorption, inhibitor | cortical bone slices | 504 h | – | effective concentration | ≥ 80 nM
